{"data": "Assay results pooled from the literature", "CCKBR": "Gastrin/cholecystokinin type B receptor (CCKBR, Homo sapiens, UniProt P32239)", "note": "Each line is one published result; not all experiments were run side by side.", "UniProt P32239, sequence (whole entry, looked up)": "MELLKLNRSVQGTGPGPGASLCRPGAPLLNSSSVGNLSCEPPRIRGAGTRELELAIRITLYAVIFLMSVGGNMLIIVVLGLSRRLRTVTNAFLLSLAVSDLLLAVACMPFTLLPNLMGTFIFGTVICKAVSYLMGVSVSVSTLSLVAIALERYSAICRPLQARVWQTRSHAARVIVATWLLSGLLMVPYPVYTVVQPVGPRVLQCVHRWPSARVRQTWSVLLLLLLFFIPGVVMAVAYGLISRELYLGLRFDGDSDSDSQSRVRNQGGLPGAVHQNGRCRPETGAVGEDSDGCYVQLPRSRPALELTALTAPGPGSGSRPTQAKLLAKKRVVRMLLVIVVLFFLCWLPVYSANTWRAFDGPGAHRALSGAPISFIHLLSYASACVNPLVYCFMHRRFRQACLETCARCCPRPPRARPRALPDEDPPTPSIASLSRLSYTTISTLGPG", "UniProt P35367, sequence (whole entry, looked up)": "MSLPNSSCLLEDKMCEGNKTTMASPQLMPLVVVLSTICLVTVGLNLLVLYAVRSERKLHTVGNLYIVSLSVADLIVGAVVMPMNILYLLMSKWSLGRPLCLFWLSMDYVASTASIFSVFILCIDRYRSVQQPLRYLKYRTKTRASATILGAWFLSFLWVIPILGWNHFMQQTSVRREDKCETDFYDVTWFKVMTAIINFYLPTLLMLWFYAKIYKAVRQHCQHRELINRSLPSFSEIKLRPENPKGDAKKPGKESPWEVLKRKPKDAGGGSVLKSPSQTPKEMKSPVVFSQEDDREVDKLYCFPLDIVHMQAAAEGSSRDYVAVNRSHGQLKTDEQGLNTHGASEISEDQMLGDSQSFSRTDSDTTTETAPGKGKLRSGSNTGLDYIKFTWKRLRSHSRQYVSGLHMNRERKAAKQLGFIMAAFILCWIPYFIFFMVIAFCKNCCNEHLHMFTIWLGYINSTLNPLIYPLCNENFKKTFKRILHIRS", "UniProt P42336, sequence (whole entry, unmodified, looked up)": "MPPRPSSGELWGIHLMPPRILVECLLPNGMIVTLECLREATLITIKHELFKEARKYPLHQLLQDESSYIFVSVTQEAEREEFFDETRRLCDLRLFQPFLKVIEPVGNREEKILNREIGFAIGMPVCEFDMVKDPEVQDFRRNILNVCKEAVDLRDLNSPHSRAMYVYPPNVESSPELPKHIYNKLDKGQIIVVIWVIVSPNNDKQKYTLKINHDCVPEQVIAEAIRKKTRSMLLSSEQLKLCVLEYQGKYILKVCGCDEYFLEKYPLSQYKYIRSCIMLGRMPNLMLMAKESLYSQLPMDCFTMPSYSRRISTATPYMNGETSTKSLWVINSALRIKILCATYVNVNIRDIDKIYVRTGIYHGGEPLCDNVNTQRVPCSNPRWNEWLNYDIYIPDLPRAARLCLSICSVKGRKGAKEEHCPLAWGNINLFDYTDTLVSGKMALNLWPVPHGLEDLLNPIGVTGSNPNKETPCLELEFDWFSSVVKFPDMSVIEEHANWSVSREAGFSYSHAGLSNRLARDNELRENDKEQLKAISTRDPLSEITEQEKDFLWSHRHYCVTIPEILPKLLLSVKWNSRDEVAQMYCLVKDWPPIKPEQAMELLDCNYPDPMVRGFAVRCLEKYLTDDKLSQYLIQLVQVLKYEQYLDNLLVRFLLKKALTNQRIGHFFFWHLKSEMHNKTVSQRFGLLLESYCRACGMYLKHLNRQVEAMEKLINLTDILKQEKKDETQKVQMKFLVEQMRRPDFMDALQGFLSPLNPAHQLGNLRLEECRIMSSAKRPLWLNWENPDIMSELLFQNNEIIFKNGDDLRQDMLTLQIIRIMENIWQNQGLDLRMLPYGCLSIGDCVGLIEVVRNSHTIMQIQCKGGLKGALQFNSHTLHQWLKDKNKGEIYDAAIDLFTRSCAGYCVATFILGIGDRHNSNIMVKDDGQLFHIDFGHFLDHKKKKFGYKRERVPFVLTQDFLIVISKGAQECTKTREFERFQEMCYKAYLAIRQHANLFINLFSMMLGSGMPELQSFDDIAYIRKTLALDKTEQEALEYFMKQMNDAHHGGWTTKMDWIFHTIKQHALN", "UniProt P49336, sequence (whole entry, looked up)": "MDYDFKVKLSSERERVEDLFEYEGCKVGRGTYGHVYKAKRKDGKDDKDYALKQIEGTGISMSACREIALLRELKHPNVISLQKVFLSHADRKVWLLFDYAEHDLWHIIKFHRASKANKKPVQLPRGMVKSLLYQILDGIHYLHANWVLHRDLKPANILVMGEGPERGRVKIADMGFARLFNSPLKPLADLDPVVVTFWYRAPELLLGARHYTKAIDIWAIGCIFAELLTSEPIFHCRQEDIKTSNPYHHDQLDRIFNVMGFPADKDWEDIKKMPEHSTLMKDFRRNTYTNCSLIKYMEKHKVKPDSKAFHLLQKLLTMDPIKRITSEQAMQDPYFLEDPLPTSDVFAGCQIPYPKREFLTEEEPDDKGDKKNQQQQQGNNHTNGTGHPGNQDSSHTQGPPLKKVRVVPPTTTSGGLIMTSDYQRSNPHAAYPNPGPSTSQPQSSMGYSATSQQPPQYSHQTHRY", "UniProt P02550, sequence (whole entry, looked up)": "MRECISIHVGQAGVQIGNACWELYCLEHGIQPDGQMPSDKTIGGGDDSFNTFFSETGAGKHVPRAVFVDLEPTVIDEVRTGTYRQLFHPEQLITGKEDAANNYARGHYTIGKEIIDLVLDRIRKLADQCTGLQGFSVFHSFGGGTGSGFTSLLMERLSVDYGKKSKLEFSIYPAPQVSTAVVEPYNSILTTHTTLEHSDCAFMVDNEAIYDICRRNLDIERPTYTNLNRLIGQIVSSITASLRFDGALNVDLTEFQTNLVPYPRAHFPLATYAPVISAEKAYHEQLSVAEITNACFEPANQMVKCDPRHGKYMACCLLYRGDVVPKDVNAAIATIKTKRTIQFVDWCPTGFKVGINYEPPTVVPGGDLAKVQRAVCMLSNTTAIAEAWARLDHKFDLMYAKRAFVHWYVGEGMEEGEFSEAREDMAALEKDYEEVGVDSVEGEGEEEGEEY", "UniProt P31645, sequence (whole entry, looked up)": "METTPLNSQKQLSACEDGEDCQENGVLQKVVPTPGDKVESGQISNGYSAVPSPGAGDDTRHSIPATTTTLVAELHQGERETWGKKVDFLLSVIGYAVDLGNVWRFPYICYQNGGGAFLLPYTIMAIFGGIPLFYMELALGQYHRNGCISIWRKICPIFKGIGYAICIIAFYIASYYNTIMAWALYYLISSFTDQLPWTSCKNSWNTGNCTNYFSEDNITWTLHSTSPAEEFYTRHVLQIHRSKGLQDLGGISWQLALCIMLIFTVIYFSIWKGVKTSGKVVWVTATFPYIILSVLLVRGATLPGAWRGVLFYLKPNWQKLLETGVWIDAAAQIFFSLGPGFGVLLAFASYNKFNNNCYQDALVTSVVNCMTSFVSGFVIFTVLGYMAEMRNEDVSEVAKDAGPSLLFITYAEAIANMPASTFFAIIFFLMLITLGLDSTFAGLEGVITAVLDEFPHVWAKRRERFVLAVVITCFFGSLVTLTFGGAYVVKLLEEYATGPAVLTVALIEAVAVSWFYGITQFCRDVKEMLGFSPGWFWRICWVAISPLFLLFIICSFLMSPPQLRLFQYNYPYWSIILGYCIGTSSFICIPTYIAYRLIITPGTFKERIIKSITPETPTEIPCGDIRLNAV", "UniProt Q9NWZ3, sequence (whole entry, looked up)": "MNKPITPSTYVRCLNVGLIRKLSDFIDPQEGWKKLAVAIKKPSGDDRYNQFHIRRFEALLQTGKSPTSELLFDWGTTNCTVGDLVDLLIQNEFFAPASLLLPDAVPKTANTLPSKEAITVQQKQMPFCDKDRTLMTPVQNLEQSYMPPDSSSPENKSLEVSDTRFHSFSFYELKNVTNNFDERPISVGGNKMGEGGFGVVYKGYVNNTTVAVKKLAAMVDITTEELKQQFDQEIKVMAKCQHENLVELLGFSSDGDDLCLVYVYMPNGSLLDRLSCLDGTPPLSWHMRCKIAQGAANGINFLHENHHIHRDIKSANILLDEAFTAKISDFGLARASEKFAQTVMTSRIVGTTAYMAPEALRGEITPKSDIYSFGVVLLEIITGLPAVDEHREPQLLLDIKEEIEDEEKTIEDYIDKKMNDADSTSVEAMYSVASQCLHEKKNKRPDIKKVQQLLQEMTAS", "UniProt Q9HBH9, sequence (whole entry, looked up)": "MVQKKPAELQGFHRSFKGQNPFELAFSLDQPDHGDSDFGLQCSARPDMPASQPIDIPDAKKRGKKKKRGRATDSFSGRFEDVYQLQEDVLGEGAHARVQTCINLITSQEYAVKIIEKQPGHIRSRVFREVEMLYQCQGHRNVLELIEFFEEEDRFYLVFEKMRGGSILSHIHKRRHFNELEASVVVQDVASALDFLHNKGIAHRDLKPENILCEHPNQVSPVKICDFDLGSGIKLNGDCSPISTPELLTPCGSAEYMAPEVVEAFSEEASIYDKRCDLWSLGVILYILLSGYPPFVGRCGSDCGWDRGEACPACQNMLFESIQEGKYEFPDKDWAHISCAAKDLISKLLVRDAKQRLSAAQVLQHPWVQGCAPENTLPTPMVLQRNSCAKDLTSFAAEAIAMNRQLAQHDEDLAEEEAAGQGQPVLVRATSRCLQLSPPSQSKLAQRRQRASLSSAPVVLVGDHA", "UniProt Q9NRG4, sequence (whole entry, looked up)": "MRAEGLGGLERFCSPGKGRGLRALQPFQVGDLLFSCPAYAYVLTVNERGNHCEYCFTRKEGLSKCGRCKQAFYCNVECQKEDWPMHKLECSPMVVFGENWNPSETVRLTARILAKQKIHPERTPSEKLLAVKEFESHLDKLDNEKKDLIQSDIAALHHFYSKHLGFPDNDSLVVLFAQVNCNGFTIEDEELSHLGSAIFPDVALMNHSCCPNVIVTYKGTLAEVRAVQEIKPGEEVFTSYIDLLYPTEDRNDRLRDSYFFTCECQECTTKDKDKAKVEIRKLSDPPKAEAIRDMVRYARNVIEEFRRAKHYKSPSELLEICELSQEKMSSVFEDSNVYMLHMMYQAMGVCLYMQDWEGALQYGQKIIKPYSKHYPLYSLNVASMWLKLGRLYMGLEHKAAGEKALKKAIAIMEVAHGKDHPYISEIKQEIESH"}
{"SMILES": "O=C(O)c1ccccc1/C=N/Nc1nc(-c2ccccc2Cl)cs1", "target": "Mitogen-activated protein kinase kinase kinase kinase 5 (MAP4K5, Homo sapiens, UniProt Q9Y4K4)", "assay": "enzyme activity, inhibitor", "setting": "1 µM", "inhibition": "-11.9%"}
{"SMILES": "O=C(CN1CN(c2ccccc2)C2(CCN(C(=O)c3cnc4[nH]ncc4c3)CC2)C1=O)NCC(F)(F)F", "target": "Cyclin-dependent kinase 8 (CDK8, Homo sapiens, UniProt P49336)", "assay": "inhibitor", "setting": "concentration not given", "inhibition": "< 50%"}
{"SMILES": "Cc1ccc(NC(=O)Nc2cccc(C(=O)N3CCC(C)CC3)c2)cc1", "target": "Beta-lactam-inducible penicillin-binding protein (pbp, Staphylococcus aureus, UniProt P07944)", "assay": "Bocillin-FL labelling, fluorescence polarization", "setting": "50 µM", "inhibition": "no inhibition"}
{"SMILES": "C=CC(=O)Nc1cc(-c2nn(C3CCC(N4CCN(C(C)=O)CC4)CC3)c3ncnc(N)c23)ccc1Oc1ccccc1 (stereo not drawn)", "target": "Phosphatidylinositol 4,5-bisphosphate 3-kinase catalytic subunit beta isoform (PIK3CB, Homo sapiens, UniProt P42338)", "assay": "inhibitor, KiNativ profiling", "test system": "biochemical", "setting": "2 µM", "inhibition": "11.6%"}
{"SMILES": "O=S(=O)(F)c1cccc(S(=O)(=O)Nc2ccc(N3CCNCC3)c(F)c2)c1", "target": "GTPase KRas (KRAS, Homo sapiens, UniProt P01116)", "assay": "SOS1-mediated nucleotide exchange", "setting": "concentration not given, 24 h, added: BODIPY-FL-GDP", "inhibition": "no inhibition"}
{"SMILES": "O=C1c2ccccc2CCCN1CCCCN1CCN(c2cccc(Cl)c2Cl)CC1", "target": "D(3) dopamine receptor (DRD3, Homo sapiens, UniProt P35462)", "assay": "radioligand binding", "setting": "concentration not given, added: [3H]N-methylspiperone", "inhibition": "99.7%"}
{"SMILES": "CC(C)[C@H]1NC(=O)C[C@H]2/C=C/CCSSC[C@@H](NC1=O)C(=O)N[C@H](Cc1cccc3ccccc13)C(=O)NCC(=O)O2", "target": "Mast/stem cell growth factor receptor Kit (KIT, Homo sapiens, UniProt P10721, V560G)", "assay": "enzyme activity, inhibitor", "setting": "10 µM", "inhibition": "-3.9%"}
{"SMILES": "CCc1nnc(-c2c(OC)cc(-c3cnc4cc(-c5cnn(C)c5)ccn34)cc2OC)o1", "target": "Sodium-dependent serotonin transporter (SLC6A4, Homo sapiens, UniProt P31645)", "assay": "antagonist radioligand, radioligand binding", "setting": "10 µM, SafetyScreen44 5-HT transporter", "inhibition": "-4%"}
{"SMILES": "C[C@H](NCc1ccc(-c2ccc(C(F)(F)F)cc2)cc1)C(N)=O", "target": "MAP kinase-interacting serine/threonine-protein kinase 2 (MKNK2, Homo sapiens, UniProt Q9HBH9)", "assay": "cell-free assay, competition with immobilised ligand", "setting": "1 µM", "inhibition": "15%"}
{"SMILES": "N#Cc1ccc(N2N=C3c4ccc(C(=O)O)cc4CCC3C2C2CCCC2)cc1Cl (stereo not drawn)", "target": "N-lysine methyltransferase SMYD2 (SMYD2, Homo sapiens, UniProt Q9NRG4)", "assay": "enzyme activity, inhibitor", "setting": "10 µM", "inhibition": "0%"}
{"SMILES": "CN[C@@H]1[C@H](O)[C@H](NC)[C@H]2O[C@]3(O)[C@H](O[C@@H]2[C@H]1O)O[C@H](C)C[C@H]3NC(=O)Cc1ccc(Cl)cn1", "target": "Histamine H1 receptor (HRH1, Homo sapiens, UniProt P35367)", "assay": "ligand displacement, radioligand", "setting": "10 µM", "inhibition": "-3%"}
{"SMILES": "N[C@H](C(=O)N1CCCC1)C1CCN(c2nccc3c(-c4ncc(Cl)cc4Cl)cccc23)CC1", "target": "Interleukin-1 receptor-associated kinase 4 (IRAK4, Homo sapiens, UniProt Q9NWZ3)", "assay": "kinase activity, inhibitor", "setting": "10 µM, added: ATP 1 mM", "inhibition": "0.3%"}
{"SMILES": "CS(C)(=O)=Nc1ccc(-c2ccc(-c3nc4cc(O[C@@H]5CO[C@H]6[C@@H]5OC[C@H]6O)[nH]c4cc3F)cc2)cc1", "target": "CCKBR", "assay": "calcium signal, antagonist", "setting": "10 µM", "inhibition": "13%"}
{"SMILES": "Cc1ccc2c(n1)c(-c1cccc(S(C)(=O)=O)c1)c(C)n2C/C(F)=C/CN", "target": "Type-1 angiotensin II receptor (AGTR1, Homo sapiens, UniProt P30556)", "assay": "ligand displacement, radioligand", "setting": "10 µM", "inhibition": "1%"}
{"SMILES": "CCN(N=Cc1cnc2ccc(Br)cn12)S(=O)(=O)c1cc([N+](=O)[O-])ccc1C", "target": "Phosphatidylinositol 4,5-bisphosphate 3-kinase catalytic subunit alpha isoform (PIK3CA, Homo sapiens, UniProt P42336, I771A)", "assay": "enzyme activity", "setting": "60 nM", "inhibition": "30%"}
{"SMILES": "CC[C@]1(C)Oc2cc(ccc2O)[C@H](O)[C@@H](NC)C(=O)N[C@H](C(C)C)C(=O)N[C@H]1C(=O)NCC(=O)O", "target": "Tubulin alpha-1A/beta chain (Sus scrofa, UniProt P02550+P02554)", "assay": "tubulin polymerization", "setting": "concentration not given", "inhibition": "no inhibition"}
{"SMILES": "CCN(CC)CCOc1ccc(-c2nnn(Cc3ccc(OC)cc3)c2N)cc1", "target": "Potassium voltage-gated channel subfamily KQT member 1 (KCNQ1, Homo sapiens, UniProt P51787)", "assay": "ion channel", "test system": "CHO", "setting": "10 µM, added: 10000 nM", "inhibition": "44%"}
{"SMILES": "CN(/N=C/c1ccccc1C(=O)O)c1nc(-c2ccccc2Cl)cs1", "target": "Tyrosine-protein kinase Lyn (LYN, Homo sapiens, UniProt P07948)", "assay": "enzyme activity, inhibitor", "setting": "1 µM", "inhibition": "-6.6%"}
{"SMILES": "Cc1cnc(C2CCOCC2)n1C1CCN(C(=O)Nc2ccccc2F)CC1", "target": "Cholinesterase (BCHE, Homo sapiens, UniProt P06276)", "assay": "enzyme activity, inhibitor, Ellman", "setting": "10 µM", "inhibition": "27.8%"}
{"SMILES": "CN(C)[C@H]1C[C@@]23CC[C@@]4(O2)C(=CC[C@]2(C)[C@@H](c5ccc6ccncc6c5)CC[C@H]24)C=C3[C@@H](O)[C@@H]1O", "target": "Inhibitor of nuclear factor kappa-B kinase subunit epsilon (IKBKE, Homo sapiens, UniProt Q14164)", "assay": "ATP probe labelling, inhibitor, KiNativ profiling", "setting": "1 µM", "inhibition": "-15.4%"}
{"SMILES": "COc1ccc(F)cc1S(=O)(=O)Nc1cnc2c(c1)C(=O)NCCO2", "target": "CCKBR", "assay": "ligand displacement, radioligand", "setting": "10 µM", "inhibition": "7%"}
